Results of several laboratories.
Each numbered part is a random draw from the data of one study; scales do not carry over between parts. “And” joins repeats or separate records; there may be more than shown.
UniProt Q9Y6R4, sequence (whole entry, looked up): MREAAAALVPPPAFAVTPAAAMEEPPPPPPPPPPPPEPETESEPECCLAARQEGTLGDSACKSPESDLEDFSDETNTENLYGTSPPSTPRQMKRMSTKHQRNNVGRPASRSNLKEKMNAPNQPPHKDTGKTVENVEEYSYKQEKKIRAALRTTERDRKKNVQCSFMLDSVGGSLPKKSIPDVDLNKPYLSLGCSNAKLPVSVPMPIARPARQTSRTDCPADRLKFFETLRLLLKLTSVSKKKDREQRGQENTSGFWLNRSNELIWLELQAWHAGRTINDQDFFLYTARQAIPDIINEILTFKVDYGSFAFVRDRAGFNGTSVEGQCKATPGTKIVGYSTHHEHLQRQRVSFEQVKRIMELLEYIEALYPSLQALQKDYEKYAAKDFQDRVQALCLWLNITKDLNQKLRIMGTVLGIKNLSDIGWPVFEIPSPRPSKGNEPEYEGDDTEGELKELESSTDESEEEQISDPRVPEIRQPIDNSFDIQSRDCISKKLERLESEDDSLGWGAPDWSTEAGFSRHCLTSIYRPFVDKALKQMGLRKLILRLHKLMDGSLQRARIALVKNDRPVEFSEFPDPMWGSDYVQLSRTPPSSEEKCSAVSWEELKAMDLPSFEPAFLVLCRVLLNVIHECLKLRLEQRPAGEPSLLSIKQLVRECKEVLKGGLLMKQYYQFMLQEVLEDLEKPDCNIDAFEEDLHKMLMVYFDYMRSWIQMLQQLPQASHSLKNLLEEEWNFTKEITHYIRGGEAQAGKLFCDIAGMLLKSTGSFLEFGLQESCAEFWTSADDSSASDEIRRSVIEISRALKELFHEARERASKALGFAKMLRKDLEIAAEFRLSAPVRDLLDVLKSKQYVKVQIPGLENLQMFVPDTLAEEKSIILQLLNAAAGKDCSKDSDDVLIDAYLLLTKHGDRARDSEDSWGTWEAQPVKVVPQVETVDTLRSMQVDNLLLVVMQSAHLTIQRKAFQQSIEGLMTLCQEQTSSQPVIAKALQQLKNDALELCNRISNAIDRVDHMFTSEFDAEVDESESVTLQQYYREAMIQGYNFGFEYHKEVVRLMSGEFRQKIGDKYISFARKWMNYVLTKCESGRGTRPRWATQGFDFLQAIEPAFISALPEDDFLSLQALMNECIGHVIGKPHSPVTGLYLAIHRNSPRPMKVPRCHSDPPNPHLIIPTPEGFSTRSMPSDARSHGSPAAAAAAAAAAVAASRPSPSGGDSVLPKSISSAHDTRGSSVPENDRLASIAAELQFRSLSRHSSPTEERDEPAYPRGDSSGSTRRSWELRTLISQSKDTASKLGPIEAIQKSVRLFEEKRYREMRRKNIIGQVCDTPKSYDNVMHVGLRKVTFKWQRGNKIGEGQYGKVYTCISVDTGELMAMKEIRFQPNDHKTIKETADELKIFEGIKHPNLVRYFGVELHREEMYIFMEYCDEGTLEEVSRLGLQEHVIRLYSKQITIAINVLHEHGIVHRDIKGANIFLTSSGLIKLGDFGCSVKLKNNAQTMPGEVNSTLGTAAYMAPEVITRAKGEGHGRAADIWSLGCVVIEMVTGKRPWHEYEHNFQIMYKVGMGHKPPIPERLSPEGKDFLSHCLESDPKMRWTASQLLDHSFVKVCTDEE
UniProt Q8N752, sequence (whole entry, looked up): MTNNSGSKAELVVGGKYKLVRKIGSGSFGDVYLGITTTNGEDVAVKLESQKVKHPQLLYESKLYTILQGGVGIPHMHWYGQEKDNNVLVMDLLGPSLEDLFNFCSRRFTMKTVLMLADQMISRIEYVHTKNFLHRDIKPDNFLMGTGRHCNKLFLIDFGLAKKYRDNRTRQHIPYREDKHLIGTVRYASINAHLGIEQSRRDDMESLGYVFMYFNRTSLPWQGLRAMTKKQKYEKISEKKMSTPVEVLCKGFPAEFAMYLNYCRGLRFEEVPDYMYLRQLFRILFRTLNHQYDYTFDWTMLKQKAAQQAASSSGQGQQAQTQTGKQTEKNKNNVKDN
UniProt P42336, sequence (whole entry, unmodified, looked up): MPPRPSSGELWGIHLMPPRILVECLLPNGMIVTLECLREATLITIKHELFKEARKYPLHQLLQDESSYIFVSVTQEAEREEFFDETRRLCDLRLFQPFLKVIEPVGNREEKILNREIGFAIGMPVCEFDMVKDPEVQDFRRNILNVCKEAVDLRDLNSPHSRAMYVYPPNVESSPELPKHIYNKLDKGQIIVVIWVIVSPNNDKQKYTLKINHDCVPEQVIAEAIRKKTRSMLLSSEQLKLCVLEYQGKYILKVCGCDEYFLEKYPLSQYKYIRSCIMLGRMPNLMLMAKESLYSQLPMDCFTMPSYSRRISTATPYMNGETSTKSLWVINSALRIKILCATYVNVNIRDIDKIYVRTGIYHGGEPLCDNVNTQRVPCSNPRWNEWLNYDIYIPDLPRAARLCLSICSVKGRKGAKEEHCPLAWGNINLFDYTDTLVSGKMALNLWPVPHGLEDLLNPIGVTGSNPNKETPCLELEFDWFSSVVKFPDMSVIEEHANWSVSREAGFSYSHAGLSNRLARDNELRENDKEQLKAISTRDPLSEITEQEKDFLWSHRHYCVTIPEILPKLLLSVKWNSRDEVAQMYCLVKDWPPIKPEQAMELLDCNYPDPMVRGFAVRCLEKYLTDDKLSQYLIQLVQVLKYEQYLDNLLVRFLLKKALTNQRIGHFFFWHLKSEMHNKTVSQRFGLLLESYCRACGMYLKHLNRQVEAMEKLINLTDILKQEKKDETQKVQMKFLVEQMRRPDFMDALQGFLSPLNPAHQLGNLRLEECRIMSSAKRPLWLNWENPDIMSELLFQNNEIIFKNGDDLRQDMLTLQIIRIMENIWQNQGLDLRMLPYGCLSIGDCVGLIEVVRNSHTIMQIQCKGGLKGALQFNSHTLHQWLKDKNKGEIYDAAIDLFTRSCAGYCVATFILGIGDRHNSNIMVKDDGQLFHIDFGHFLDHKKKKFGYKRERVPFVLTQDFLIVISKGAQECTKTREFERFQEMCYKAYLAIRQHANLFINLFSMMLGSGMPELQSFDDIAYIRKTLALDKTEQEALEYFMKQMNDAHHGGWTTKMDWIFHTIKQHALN
UniProt Q09013, sequence (whole entry, looked up): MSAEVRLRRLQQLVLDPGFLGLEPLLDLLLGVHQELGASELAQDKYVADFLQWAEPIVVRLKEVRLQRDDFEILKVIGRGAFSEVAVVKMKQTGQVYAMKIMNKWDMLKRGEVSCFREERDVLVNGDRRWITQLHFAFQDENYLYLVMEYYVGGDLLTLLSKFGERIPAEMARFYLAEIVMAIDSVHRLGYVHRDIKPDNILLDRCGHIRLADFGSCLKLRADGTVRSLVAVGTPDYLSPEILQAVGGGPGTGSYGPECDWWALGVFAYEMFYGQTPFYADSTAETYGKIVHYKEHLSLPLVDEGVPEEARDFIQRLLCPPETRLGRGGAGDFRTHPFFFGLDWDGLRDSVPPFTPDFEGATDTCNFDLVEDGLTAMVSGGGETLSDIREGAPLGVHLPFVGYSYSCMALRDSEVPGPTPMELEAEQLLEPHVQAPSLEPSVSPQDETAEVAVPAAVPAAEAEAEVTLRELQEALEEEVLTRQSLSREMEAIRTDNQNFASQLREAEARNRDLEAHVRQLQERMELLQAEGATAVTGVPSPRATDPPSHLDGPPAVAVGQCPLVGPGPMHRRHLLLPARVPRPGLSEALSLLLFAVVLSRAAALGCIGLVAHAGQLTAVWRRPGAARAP
UniProt Q9HBH9, sequence (whole entry, looked up): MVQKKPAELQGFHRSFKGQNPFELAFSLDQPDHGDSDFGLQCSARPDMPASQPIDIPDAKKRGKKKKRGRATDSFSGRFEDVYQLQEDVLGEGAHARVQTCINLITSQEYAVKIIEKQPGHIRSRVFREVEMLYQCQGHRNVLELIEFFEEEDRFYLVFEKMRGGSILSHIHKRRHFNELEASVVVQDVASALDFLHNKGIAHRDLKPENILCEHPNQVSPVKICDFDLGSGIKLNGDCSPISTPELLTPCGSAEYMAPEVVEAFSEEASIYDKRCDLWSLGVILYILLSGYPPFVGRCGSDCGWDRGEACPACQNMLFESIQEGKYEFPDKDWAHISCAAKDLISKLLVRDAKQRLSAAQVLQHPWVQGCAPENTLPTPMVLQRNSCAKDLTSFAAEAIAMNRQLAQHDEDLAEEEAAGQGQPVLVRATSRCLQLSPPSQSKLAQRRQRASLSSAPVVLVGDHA
UniProt Q15831, sequence (whole entry, looked up): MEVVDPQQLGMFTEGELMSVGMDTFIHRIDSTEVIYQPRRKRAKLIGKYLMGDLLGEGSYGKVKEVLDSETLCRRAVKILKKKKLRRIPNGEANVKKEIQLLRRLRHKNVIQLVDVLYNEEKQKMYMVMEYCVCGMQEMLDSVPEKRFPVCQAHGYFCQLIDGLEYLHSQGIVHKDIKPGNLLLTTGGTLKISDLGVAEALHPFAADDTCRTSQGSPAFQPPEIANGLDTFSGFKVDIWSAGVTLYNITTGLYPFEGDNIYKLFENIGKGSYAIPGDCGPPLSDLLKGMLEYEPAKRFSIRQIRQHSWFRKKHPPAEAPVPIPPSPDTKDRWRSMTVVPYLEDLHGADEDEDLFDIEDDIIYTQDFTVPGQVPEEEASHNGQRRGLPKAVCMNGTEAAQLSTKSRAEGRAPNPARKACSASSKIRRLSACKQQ

Block 1 — technique: KINOMEscan; tested at: 10 µM; baseline: DMSO control; direction: lower = stronger binding
Structure (SMILES): COc1cc(C(=O)N2CCC(N3CCN(C)CC3)CC2)ccc1Nc1ncc2c(n1)N(C)c1ccccc1C(=O)N2C
target	binding [%]
ACVR1	98
HIPK3	89
ZAK	99
CAMK2A	21
BMX	87
LATS1	100
TNNI3K	100
ACVR2A	100
NIM1	100
EPHA1	100
MAP3K4	100
FGFR2	95
EPHB3	100
BRSK1	81

Block 2 — read-out: enzyme activity; action: inhibitor; tested at: 0.5 µM; baseline: control
Target: Protein-tyrosine kinase 6 (PTK6, Homo sapiens, UniProt Q13882)
UniProt Q13882, sequence (whole entry, looked up): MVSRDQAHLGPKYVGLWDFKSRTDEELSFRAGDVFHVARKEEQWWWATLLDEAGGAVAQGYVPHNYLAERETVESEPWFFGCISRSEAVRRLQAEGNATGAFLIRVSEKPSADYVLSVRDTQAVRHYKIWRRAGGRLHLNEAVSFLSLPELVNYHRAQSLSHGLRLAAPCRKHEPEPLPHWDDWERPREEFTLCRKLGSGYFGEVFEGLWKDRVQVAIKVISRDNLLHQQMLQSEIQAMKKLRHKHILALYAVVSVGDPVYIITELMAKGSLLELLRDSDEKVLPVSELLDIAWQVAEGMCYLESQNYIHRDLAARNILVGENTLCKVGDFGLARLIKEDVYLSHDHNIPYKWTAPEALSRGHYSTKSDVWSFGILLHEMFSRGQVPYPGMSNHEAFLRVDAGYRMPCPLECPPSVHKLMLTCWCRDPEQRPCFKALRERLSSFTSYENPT
SMILES	remaining activity [%]
O=c1cc(N2CCOCC2)oc2c1ccc1ccccc12	101
COc1ccc(-c2cnc3c(-c4ccsc4)cnn3c2)cc1	77.5
COc1ccc(Cl)cc1NC(=O)Nc1cc(C)nc2ccccc12	101
CC(C)c1nn(-c2c(Cl)cccc2Cl)c2nc(Cc3ccc(OCCO)cc3)[nH]c(=O)c12	87.1
Nc1[nH]nc2nnc(-c3c(-c4ccccc4)nn4ccccc34)cc12	90.8
O=C1NC(=O)/C(=C/c2ccc3nccnc3c2)S1	95.1
COc1cc2ncnc(Nc3ccc(OCc4ccccc4)cc3)c2cc1OC	37.9
O=C(Nc1ccc(Cl)cc1)c1ccccc1NCc1ccncc1	63.6
Cn1cc(/C=C2\C(=O)Nc3ccc(S(N)(=O)=O)cc32)c2ccccc21	80.2
CN(C)CCCn1cc(C2=C(c3c[nH]c4ccccc34)C(=O)NC2=O)c2ccccc21	95.3

Block 3 — cell line: mouse MPNST tumor cells; technique: high-content nuclear imaging; refers to: cell number; tested at: 10 µM; time: 12 h; setting: mean of 2 replicates; baseline: plate mean; direction: higher = more cells
Compound	nuclei count
COc1ccc(OCC2c3cc(OC)c(OC)cc3CCN2C(=O)c2cccc(Cl)c2)cc1 (stereo not shown)	-0.393 z-score
CNc1oc(-c2cccc3ccccc23)nc1C#N	-0.247 z-score
c1coc(CNc2ncnc3nc[nH]c23)c1	1.11 z-score
O=C(O)[C@H]1CCCC[C@H]1C(=O)N1CCc2ccccc2[C@H]1CN1C(=O)c2ccccc2C1=O	0.304 z-score
COC(c1ccccc1)(c1ccccc1)[C@H](Oc1nc(C)cc(C)n1)C(=O)O	1.33 z-score and 1.2 z-score
Cc1cc(Nc2cc(C)c(C#N)c(NC(C)CCCC(C)(C)O)n2)n[nH]1 (stereo not shown)	-6.35 z-score
COc1c(C)cnc(Cn2cnc3c(Cl)nc(N)nc32)c1C	0.635 z-score
O=C(NCC1(N2CCN(c3ccccc3)CC2)CCOCC1)c1cccnc1Sc1ccccc1	3.16 z-score
COc1cccc(OC)c1C(=O)N[C@@H]1C(=O)N2[C@@H]1SC(C)(C)[C@@H]2C(=O)O	0.108 z-score
Cc1coc2c1C(=O)C(=O)c1c-2ccc2c(C)cccc12	-0.684 z-score
CCCCCCC[N+](CC)(CC)CCCCc1ccc(Cl)cc1	-3.27 z-score

Block 4 — read-out: cell-free assay; technique: competition with immobilised ligand; tested at: 1 µM
Compound: CN([C@@H]1CCc2c(CC(=O)O)c3cc(S(C)(=O)=O)ccc3n2C1)S(=O)(=O)c1ccc(F)cc1
target	remaining binding [%]
CDK17 (Homo sapiens, UniProt Q00537)	100
AKT2 (Homo sapiens, UniProt P31751)	92
WEE1 (Homo sapiens, UniProt P30291)	100
Tyrosine-protein kinase ABL1, non-phosphorylated (ABL1, Homo sapiens, UniProt P00519, F317L)	90
MKNK2 (Homo sapiens, UniProt Q9HBH9)	100
MAP3K1 (Homo sapiens, UniProt Q13233)	66
DMPK (Homo sapiens, UniProt Q09013)	100
PIK3CA (Homo sapiens, UniProt P42336, E542K)	88
MAP3K4 (Homo sapiens, UniProt Q9Y6R4)	79
TTK (Homo sapiens, UniProt P33981)	100
STK11 (Homo sapiens, UniProt Q15831)	69
EPHA7 (Homo sapiens, UniProt Q15375)	100
BMPR2 (Homo sapiens, UniProt Q13873)	100
CSNK1A1L (Homo sapiens, UniProt Q8N752)	94
